Published values from different studies.
Parts stem from different laboratories: compare values within a part only.

Set 1
Target: Sal-like protein 4, full length isoform B (SALL4, Homo sapiens, UniProt Q9UJQ4-2, residues 1-616)
Method: universal PBM
Form: double-stranded DNA, one strand shown
Matrix: in vitro
Tested at: not given
Notes: 8-mer, flanks averaged, mean of replicates
Reading: higher = stronger binding
Strand	E-score
CGTTATTC	0.122
ACTCACTC	-0.0158
ATTGTCTC	0.00485
AACACGCC	-0.232
AAAAGGAG	-0.00246
CATGACGG	-0.0747
ACGTACAT	0.201
AAAGTAGA	0.202
GCTACCCA	-0.23
ACCCGAAA	-0.0495
CCTCAAAC	-0.163
GTAAAATA	0.306
GCAATAGC	-0.0724
AAAGAGGT	0.0895
AGAAAATA	0.308
AGACGCAT	0.0548
AATACTGC	0.111
AGATTTTG	0.182
ATGTTACG	0.189
AGATGCCC	-0.153
ACTAACGC	-0.0189
ACGGAAGA	-0.0169
ATATGTCA	0.295
CCATTTCA	0.099
CACCTGTC	-0.16

Set 2
Target: Phosphate system positive regulatory protein PHO4, full length, GST-tagged (PHO4, Saccharomyces cerevisiae, UniProt P07270, residues 1-312)
Method: competition protein-binding microarray
Form: double-stranded DNA, one strand shown
Matrix: in vitro
Tested at: 2 µM
Notes: whole 60-bp probe, lowest competitor level
Together with: Cbf1 competitor, 0.05 µM
Reading: higher = stronger binding
Shared flanks, not repeated: … GTCTTGATTCGCTTGACGCTGCTG
Residues (chain): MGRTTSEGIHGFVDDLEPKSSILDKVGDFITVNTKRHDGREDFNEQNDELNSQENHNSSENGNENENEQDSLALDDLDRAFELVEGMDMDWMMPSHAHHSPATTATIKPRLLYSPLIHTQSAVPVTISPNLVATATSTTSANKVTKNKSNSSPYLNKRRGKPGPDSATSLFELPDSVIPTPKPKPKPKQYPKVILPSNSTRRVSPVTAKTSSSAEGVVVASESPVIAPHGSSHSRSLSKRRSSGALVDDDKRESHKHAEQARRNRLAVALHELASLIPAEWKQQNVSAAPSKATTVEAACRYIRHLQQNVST
Strand	fluorescence intensity
TTCTAGTTATTGTTGCTCGTGCAAAGATGTGCTGTG	9130 a.u.
AAAGCGGTAATTTGTCACCTTACTTCACATATCTAT	3090 a.u.
AGAATGCCACCAGACTTCATGACAGAAAAAGCTGCC	3390 a.u.
GACGGCCAAAAACTTCACATGCCGCCCAGCCAAGCA	6310 a.u.
GCCCTCAAAAAACACAACGTGCGGATAACGACAACG	13200 a.u.
GCAGAGTGATAGCGTCACAGGAAATAGCGCAACCTT	3040 a.u.
GGCCTGGGTATTATCCTCATGACGCTCGTCAACAAC	4030 a.u.
AAAGCGGTAATTTGTCACAACACTTCACATATCTAT	4220 a.u.
AAATTACTAAGTTGATCTGTGGGTGACGCCGTATGA	3790 a.u.
CACGATTGCTATCGCAGTAATAGCCTAACCTCCATC	3620 a.u.
CGAATACGGGCGGCATTCGTGATGGCAATAGATTTA	4530 a.u.
GTCTTGTCTCATTTTCACGTGGATTTCCCCACTTCA	12300 a.u.
CTTTCCCGATCTTGCAGAGTGGGTGTAGCACATTTG	4610 a.u.
CATGTTTCGATGTTACACGTGGAACAAGAGTTAAGA	18600 a.u.
TCTCATAAAAGTGAAACCGTGACGAATGTAAGATGT	6920 a.u.
CCGTATCTAGTATCGCACGCTCTTTTGCAAAAATAT	7430 a.u.
GCTCAAATAAAAGGACACGTGGTCAACCCTCAATCA	18600 a.u.
TTGTCTCATTACGTTCAGGTGACTACATTATCGAGC	3620 a.u.
AAGGTAAGCTATCACCACGTGTTGGTGATTTAAGTT	13600 a.u.
TTAAAATGGTACTGGCACGTGATGGTAGTGGCTCAA	15500 a.u.
CTTTCCCGATCTTGAGCTGTGGGTGTAGCACATTTG	4530 a.u.
CAAATTTGCCAGCGTCACAATGTCGTTTGCCTCTTG	3610 a.u.
TCAAAATTGGCATCGCACGTGAAGTTACATATATCC	13700 a.u.

Set 3
Target: RNA binding protein fox-1 homolog 2, RRM domain, GST-SBP tag (RBFOX2, Homo sapiens, UniProt O43251-10, residues 100-194)
Method: RNA Bind-n-Seq
Form: RNA
Matrix: in vitro
Tested at: 365 nM
Notes: natural RNA segment, single round, ends assumed
Reference: no-protein control
Reading: higher = stronger binding
Shared flanks, not repeated: GGGAGUUCUACAGUCCGACGAUC … UGGAAUUCUCGGGUGCCAA
Residues (chain): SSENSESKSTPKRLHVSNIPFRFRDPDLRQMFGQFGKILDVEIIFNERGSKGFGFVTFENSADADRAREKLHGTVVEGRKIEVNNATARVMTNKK
Strand	RBNS enrichment (R)
UAUCAUGACCGAGCUAGGUUGUGUGGGCAGGAAGGUAGGGCUAAGGGGUUGUAGCCUUGCUGGGCAGCCUCUCAGAGCAAGGUUGUUCAGAUCUCCCUUGCUAUUACAGU	0.62
AGCAUGUGAUAAAGAAGCCAGCCUGCAGCAGACUUCACACUUUGAAGACUGUUCCACACCACAGAAAACCAACUUCAUUUUCUACUCAGAAUUUAUACCAAGAGACUCUU	10.5
CACAGCUGUGGAUGCCAUGAAGAAGCCGUGGACAUUCUUGGUGGGUGAAGCCCUAGACGAUGGAAUCCUACCAAGCUGAACGUCGGCUUCUAUCCAUAUGCUAUCGAGUA	0.32
UCAUCUGGUUUAGAAAGCAAUUCAGUUUCUUUCAAACCACCAUAACCUAAGUGCUGCCCCAUCCUUCACCUUUACCCUAGAAAAUCUGAGAAUCCAUUGGUGUGUACUGU	0.43
CUCCUCGGGCUCAUCACCGGUUCUGUGCCUGUGCUCUGUUGUGUUGGAGGGAAGGACUGGCGGUUCUGGUUUUUACUCUGUGAACUUUAUUUAAGGACAUUCUUUUUUAU	0.638
UGCGGAUUCUGUUUUUGAGCCGUGGACUUGGGUUGUAAAUUUAUUUGUGGGGAGUGCGCUCCAGGAAGAGCCACCAUCCCUGCCCCCGUUUUCCCACCGGGGAGUCUGUA	0.301
AACUCAUUGUUCUAGUGAAGAUUAUGUUAAGCAAGCCUAAAAAAAGAUGACAACCAGUUCAUACACAGAUUUCCCAUUAUAUUGUGUAUACACACACACAGGGACAUCAA	0.376
AAAGAGAUUCUUACUAUUACUGGAGAAUAAAUCAUUUAUUUACAUGUGAUUGUGAUUCAUCAUCCCUUAAUUAAAUAUCAAAUUAUAUUUGUGUGAAAAUGUGACAAACA	0.387
GUUCAGUCUAUGAUGGAGAGGGGACCAGGUCAAGGGCCUCAGCCAGAGCAGACCAGGCUGCCUCAGAGCAUACACCUUAUAAUGCAACCCACUUCAGCUGGCUUUGGGGA	0.419
AAAGAAAGGAUACAGGGGAAGUGGACCUGUUUAGAAAUGGUUCUUUGGAGCAGAUCCUGUCUGCAUUAUCAGGAAACCAGCAAUUCAGUUCACGGGUCAGCAGUGGCAGC	0.526
CACAAACUGCUUCCUUUCUUGAUUCGUAGAUUUAAUAACUUACCUGAAGGGGUUUUCUUGAUAAUUUUCCUUUAAUAUGAAAUUUUUUUUCAUGCUUUAUCAAUAGCCCA	1.9
UUUUUCCCCAAAAGUAUUUUAAUUUCUCUACCAAAGGGGGAAAAGAAAGCAGGCUGAGGUUAUUAUUGCUAACACACCUCAGCCGAGCAGGCUAUGUACCUCGAAGGGAG	0.335

Set 4
Target: RING finger protein unkempt homolog, zinc fingers 1-6, GST-SBP tag (UNK, Homo sapiens, UniProt Q9C0B0, residues 30-357)
Sequence of UniProt Q9C0B0 (30-357, looked up): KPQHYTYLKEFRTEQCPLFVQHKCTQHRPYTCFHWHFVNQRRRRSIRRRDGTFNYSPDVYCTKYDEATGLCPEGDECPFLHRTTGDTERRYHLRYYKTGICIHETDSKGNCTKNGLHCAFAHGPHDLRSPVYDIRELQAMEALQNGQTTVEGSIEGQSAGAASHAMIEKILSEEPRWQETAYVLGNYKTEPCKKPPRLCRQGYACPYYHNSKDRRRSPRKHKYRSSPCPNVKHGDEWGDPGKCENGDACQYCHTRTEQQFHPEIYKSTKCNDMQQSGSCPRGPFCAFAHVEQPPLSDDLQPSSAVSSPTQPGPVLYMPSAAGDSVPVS
Method: RNA Bind-n-Seq
Form: RNA
Matrix: in vitro
Tested at: not given
Notes: RNA with constant flanks, human and mouse sites, ends assumed
Reference: input RNA pool
Reading: higher = stronger binding
Shared flanks, not repeated: GGGAGUUCUACAGUCCGACGAUC … CAACAGAGGAUUGAGCAUCA
Strand	bound/input enrichment [ratio]
GGCAGUGGCUGGGGAGGUGAGGGAGGGGGGGCAUUCGCUUUUGGGGGCACCUCAGGUGCCUAGGUUUUCCUUUAGGUUUGUUCUAUCCGAGACGCGGGACUCCCGGGGCCCGGCUCAAGU	5.19
UUGCCAGGUUUCCGUGUUUGUCUCAACUGAACUCUGGGCUGAGUGUUUACCAGGGAGAAGAGAUGUGAAUUAAACAACCUUCCUGUUUAGUGUUACCUGCUUUGUACAAGAAUGAAGUGC	0.6
ACUUGCUGUCUCUUAGAGGCUGAGCUUCAUUUCUAUGAGCAAAGAGCUCAUUUAGCAAUGUAGUUAUUUCAGUAUUUAUUUCUAUUAUGGAAUCCCUGGGGUUCAGAAUGUAACUUUGUA	7.33
ACAGGUCAAGUGGUAGCCAUGAAAAAAAUCAGACUAGAAAGUGAAGAGGAAGGGGUUCCUAGUACUGCAAUUCGGGAAAUUUCUCUAUUAAAGGAACUUCGUCAUCCAAAUAUAGUCAGU	0.241
GUGACUGGUGUUAAGAUUUCCCCUCAGCAAAGAAGUGCAGUAGUCACCAUAAUUCCAUCUGUGGUGAGUGCCAGUCAGAUUGUGGAGCUGGUCCCAGACCUCAGUUUAGACAUGGGAACU	0.216
GAAAAUGAGCAGACACUGAAUGUGAACCCCACUGACCCUGACAAUUUAAGCGACUCUCUCUUUUCUGGAGAUGAAGAAAAUGCUGGCACUGAAGAAAUAAAGAAUGAAAUAAAUGGAAAU	0.339
GUUCCUUUCGGCAGUGCUGCGUGCCCAGAUUCUUAAUAACAUUAAGUCUGUUACUGUGUAUAGCAAUGGUUUAUAUUUCAUUAUGCUACUAAAGGUUCAUCUUUUCUACAUUAAAAAUAU	0.222
GUUUUUACCCCAACUUUGUCAGAUAUUUCCAUUGAUAAAUUGAAGGUAUCAAGCCCAGAGCUUCCCAAGCCAUGGGGUGAUGGAGACCUGCCACUGGAAGAAGAGAACCCUAACUCACCU	0.172
CUCCUGCCGGGCGCCCGGCAGACCGAAGCGGCUCCAGUGUGCUGCUCUGCUCGGUACAACUUAGCGAUUUUGGCGUUCUGUGGUUUCUUCGUUCUCUAUGCCUUACGGGUGAACCUGAGU	0.154
UUAUGUGAUAUGAGAAGUUAUUUUUCUUUCUUUGAAGUAACAUGGAUUUUAUACUACAGAAUCAAGAGAAUUGGCUUUAUAGCAAAUUUUGAUAUAUAAAAAGUGGUACAGGUUUUUAUA	0.491
GAUAAAGAUCCCAACAAGAAGAUGAAACGAAACUUAAGGAAAAUUCUAGAUAGUAAAGCAAUAGACCUUAUGAAUGCACUAAUGAGAUUAAAUCAGAUCAGGCCCGGGCUUCAGUAUAAG	2.08

Excerpt of the above (set 2):
Strand	fluorescence intensity
TCAAAATTGGCATCGCACGTGAAGTTACATATATCC	13700 a.u.
CTTTCCCGATCTTGCAGAGTGGGTGTAGCACATTTG	4610 a.u.
GCAGAGTGATAGCGTCACAGGAAATAGCGCAACCTT	3040 a.u.
CACGATTGCTATCGCAGTAATAGCCTAACCTCCATC	3620 a.u.
AAAGCGGTAATTTGTCACCTTACTTCACATATCTAT	3090 a.u.
TTGTCTCATTACGTTCAGGTGACTACATTATCGAGC	3620 a.u.
CATGTTTCGATGTTACACGTGGAACAAGAGTTAAGA	18600 a.u.
TTAAAATGGTACTGGCACGTGATGGTAGTGGCTCAA	15500 a.u.
GTCTTGTCTCATTTTCACGTGGATTTCCCCACTTCA	12300 a.u.
GCTCAAATAAAAGGACACGTGGTCAACCCTCAATCA	18600 a.u.
